Published values collected from several papers.
Every numbered part comes from another study and shows a few of its results, in no order. Several values in a cell are separate wells, animals, samples, runs or records.
Sequence of UniProt P42684 (whole entry, looked up): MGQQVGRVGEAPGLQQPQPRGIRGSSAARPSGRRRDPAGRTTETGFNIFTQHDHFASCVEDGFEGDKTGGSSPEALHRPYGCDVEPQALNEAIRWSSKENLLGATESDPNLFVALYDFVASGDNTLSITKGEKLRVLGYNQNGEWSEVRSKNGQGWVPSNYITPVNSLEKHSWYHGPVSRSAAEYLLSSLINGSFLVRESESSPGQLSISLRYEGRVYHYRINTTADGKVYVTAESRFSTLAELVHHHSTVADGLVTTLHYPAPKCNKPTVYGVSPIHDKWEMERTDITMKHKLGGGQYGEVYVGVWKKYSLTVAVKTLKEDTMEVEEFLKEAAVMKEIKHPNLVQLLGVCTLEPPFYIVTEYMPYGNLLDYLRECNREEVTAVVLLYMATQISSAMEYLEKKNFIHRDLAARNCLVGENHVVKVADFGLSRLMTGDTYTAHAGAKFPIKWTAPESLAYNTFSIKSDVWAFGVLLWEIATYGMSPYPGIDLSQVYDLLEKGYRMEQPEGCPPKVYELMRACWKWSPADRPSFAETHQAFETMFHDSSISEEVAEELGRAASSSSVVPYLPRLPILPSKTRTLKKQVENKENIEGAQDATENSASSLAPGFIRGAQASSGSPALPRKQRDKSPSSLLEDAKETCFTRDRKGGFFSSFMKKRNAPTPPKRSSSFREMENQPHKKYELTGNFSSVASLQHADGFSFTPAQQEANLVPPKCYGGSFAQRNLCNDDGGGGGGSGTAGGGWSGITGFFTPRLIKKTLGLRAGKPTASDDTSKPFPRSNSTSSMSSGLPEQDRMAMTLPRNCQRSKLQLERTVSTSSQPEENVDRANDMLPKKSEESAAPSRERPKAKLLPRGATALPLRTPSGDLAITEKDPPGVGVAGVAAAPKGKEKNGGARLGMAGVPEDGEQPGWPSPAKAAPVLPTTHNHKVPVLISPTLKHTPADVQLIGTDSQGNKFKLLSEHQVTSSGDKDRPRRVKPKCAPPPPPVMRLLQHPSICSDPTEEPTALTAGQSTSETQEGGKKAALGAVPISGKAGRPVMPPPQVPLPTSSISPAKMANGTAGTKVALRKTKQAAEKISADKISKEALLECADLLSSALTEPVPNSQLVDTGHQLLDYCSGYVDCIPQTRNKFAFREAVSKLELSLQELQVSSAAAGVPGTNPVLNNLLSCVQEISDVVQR
Sequence of UniProt Q9HC98 (whole entry, looked up): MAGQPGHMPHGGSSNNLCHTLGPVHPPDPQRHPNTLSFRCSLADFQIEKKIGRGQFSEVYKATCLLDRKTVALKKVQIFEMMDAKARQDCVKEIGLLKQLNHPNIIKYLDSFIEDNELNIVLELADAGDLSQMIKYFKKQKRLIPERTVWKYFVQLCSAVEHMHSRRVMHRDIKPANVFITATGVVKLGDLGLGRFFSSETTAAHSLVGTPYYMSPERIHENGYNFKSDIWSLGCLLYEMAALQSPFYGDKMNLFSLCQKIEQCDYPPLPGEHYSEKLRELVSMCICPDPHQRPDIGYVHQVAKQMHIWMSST
Sequence of UniProt Q13043 (whole entry, looked up): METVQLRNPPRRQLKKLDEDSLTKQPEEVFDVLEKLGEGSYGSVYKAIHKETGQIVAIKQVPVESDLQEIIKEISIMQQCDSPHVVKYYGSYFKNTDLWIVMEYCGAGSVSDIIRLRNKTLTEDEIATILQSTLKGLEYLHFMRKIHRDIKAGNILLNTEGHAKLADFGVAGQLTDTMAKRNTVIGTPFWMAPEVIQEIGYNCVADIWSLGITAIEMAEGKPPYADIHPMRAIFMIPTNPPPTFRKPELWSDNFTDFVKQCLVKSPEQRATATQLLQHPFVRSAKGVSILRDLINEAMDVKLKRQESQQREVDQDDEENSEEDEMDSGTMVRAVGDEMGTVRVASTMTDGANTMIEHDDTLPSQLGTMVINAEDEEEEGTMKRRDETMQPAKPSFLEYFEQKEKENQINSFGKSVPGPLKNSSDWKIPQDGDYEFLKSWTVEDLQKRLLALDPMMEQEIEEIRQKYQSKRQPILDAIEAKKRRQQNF

Study 1
SMILES: O=C(Nc1ccccc1)Nc1cccc(Oc2ccc3nccn3n2)c1
Effect on: binding
Tested at: 1 µM
Quantity: remaining binding
target = Cyclin-dependent kinase 4, with cyclin D3 (CDK4, Homo sapiens, UniProt P11802); result = 100%
target = MARK3 (Homo sapiens, UniProt P27448); result = 100%
target = PRKCI (Homo sapiens, UniProt P41743); result = 79%
target = CDK18 (Homo sapiens, UniProt Q07002); result = 100%
target = STK4 (Homo sapiens, UniProt Q13043); test = competition with immobilised ligand; result = 100%
target = PAK1 (Homo sapiens, UniProt Q13153); result = 100%
target = FLT3 (Homo sapiens, UniProt P36888, D835V); result = 100%
target = BMPR2 (Homo sapiens, UniProt Q13873); result = 100%
target = ABL2 (Homo sapiens, UniProt P42684); test = competition with immobilised ligand; result = 69%
target = Tyrosine-protein kinase ABL1, phosphorylated (ABL1, Homo sapiens, UniProt P00519); test = competition with immobilised ligand; result = 94%
target = PIK3CB (Homo sapiens, UniProt P42338); result = 100%
target = FLT3 (Homo sapiens, UniProt P36888, R834Q); result = 96%
target = FGFR4 (Homo sapiens, UniProt P22455); result = 100%
target = TAOK1 (Homo sapiens, UniProt Q7L7X3); test = competition with immobilised ligand; result = 100%
target = ERBB4 (Homo sapiens, UniProt Q15303); test = competition with immobilised ligand; result = 100%
target = CAMKK1 (Homo sapiens, UniProt Q8N5S9); result = 100%
target = PRPF4B (Homo sapiens, UniProt Q13523); result = 74%

Study 2
SMILES: COc1cc(-c2nc3ccc(C(=O)NCCCN(C)C)cc3n2C2CCC2)cc(OC)c1OC
Quantity: remaining binding
target = HIPK3 (Homo sapiens, UniProt Q9H422); test = binding, competition with immobilised ligand; conditions = 1 µM; result = 76%
target = TNIK (Homo sapiens, UniProt Q9UKE5); test = binding, competition with immobilised ligand; conditions = 1 µM; result = 83%
target = NEK1 (Homo sapiens, UniProt Q96PY6); test = binding, competition with immobilised ligand; conditions = 1 µM; result = 90%
target = STK32C (Homo sapiens, UniProt Q86UX6); test = binding, competition with immobilised ligand; conditions = 1 µM; result = 89%
target = PIK3C2G (Homo sapiens, UniProt O75747); test = binding, competition with immobilised ligand; conditions = 1 µM; result = 63%
target = STK38 (Homo sapiens, UniProt Q15208); test = binding, competition with immobilised ligand; conditions = 1 µM; result = 46%
target = Tyrosine-protein kinase ABL1, phosphorylated (ABL1, Homo sapiens, UniProt P00519); test = binding, competition with immobilised ligand; conditions = 1 µM; result = 65%
target = STK25 (Homo sapiens, UniProt O00506); test = binding, competition with immobilised ligand; conditions = 1 µM; result = 100%
target = NEK6 (Homo sapiens, UniProt Q9HC98); test = binding, competition with immobilised ligand; conditions = 1 µM; result = 100%
target = MAP2K7 (Homo sapiens, UniProt O14733); test = KINOMEscan; conditions = 1000 nM; result = 94%
target = HCK (Homo sapiens, UniProt P08631); test = binding, competition with immobilised ligand; conditions = 1 µM; result = 95%
target = ABL2 (Homo sapiens, UniProt P42684); test = binding, competition with immobilised ligand; conditions = 1 µM; result = 86%

Study 3
Structure (SMILES): NC/C(=C\F)COc1ccc(Cn2c(=S)[nH]c(=O)c3[nH]cnc32)cc1
Effect on: enzyme activity
Quantity: inhibition
AOC3: Amine oxidase [copper-containing] 3 (AOC3, Homo sapiens, UniProt Q16853)
Sequence of UniProt Q16853 (whole entry, looked up): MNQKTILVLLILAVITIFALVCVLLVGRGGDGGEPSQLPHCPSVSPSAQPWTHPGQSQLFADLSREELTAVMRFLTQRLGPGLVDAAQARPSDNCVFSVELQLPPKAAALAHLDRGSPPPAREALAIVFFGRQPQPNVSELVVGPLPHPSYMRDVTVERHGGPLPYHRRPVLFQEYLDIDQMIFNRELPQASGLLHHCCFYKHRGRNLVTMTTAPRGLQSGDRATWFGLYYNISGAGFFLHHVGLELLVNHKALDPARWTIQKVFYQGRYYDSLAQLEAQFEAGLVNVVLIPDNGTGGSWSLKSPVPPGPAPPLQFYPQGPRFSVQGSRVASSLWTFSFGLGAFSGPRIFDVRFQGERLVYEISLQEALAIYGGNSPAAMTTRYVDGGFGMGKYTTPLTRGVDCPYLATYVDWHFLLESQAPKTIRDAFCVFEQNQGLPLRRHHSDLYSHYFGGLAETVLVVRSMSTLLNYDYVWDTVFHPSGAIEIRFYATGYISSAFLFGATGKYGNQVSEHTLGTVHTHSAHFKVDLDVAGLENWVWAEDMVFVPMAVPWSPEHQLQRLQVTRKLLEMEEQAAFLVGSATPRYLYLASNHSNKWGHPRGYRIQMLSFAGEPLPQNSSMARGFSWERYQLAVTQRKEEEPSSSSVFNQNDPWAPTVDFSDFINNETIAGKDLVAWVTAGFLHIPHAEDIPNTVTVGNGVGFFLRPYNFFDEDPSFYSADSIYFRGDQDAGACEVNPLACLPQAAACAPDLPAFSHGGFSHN
MPO: Myeloperoxidase (MPO, Homo sapiens, UniProt P05164)
Sequence of UniProt P05164 (whole entry, looked up): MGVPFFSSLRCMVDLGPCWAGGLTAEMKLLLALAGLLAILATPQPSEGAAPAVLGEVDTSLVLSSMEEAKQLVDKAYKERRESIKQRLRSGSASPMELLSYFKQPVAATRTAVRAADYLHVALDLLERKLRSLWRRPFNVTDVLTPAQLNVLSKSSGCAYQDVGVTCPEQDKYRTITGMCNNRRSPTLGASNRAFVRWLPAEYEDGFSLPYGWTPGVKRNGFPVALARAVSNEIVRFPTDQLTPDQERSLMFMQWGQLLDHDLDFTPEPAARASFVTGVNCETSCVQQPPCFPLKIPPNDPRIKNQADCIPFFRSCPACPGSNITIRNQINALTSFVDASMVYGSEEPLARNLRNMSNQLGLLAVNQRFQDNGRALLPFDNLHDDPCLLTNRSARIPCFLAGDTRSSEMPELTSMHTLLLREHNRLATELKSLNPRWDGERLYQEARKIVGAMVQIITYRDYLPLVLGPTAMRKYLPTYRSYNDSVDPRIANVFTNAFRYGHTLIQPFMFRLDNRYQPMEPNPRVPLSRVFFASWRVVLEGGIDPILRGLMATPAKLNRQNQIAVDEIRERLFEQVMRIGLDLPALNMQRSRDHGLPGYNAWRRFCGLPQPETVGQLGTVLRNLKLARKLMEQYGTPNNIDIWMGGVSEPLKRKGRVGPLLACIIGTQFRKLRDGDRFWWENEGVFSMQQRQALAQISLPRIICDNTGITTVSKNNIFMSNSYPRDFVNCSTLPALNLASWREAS
target = AOC3; test = inhibitor, fluorescence; conditions = 41.2 nM; result = 99.3%
target = MPO; conditions = 100 µM; result = 62.4% and 58.9%
target = MPO; conditions = 0.0051 µM; result = 0.309% and -3.99%
target = AOC3; test = inhibitor, fluorescence; conditions = 4.1 nM; result = 75.2%
target = AOC3; test = inhibitor, fluorescence; conditions = 37 nM; result = 101%
target = MPO; test = inhibitor, fluorescence; conditions = 500 pM; result = -6.92%

Study 4
SMILES: C[C@@H]1CN(c2ccc(-c3cc(C(=O)NCCOCCOCCOCCOCCOCCOCCNC(=O)/C=C/c4[nH]cc(C(=O)N[C@@H](CC(N)=O)c5ccc(F)c(Cl)c5)c4-c4ccc(Cl)cc4F)ccc3F)cc2NC(=O)c2ccc(F)cc2C(F)(F)F)C[C@H](C)N1C
Effect on: thermal unfolding
Method: differential scanning fluorimetry
Tested at: 5.5 µM
Reading: higher = more unfolded
Quantity: SYPRO Orange fluorescence
WDR5: WD repeat-containing protein 5 (WDR5, Homo sapiens, UniProt P61964)
DCAF1: DDB1- and CUL4-associated factor 1 (DCAF1, Homo sapiens, UniProt Q9Y4B6)
Sequence of UniProt Q9Y4B6 (whole entry, looked up): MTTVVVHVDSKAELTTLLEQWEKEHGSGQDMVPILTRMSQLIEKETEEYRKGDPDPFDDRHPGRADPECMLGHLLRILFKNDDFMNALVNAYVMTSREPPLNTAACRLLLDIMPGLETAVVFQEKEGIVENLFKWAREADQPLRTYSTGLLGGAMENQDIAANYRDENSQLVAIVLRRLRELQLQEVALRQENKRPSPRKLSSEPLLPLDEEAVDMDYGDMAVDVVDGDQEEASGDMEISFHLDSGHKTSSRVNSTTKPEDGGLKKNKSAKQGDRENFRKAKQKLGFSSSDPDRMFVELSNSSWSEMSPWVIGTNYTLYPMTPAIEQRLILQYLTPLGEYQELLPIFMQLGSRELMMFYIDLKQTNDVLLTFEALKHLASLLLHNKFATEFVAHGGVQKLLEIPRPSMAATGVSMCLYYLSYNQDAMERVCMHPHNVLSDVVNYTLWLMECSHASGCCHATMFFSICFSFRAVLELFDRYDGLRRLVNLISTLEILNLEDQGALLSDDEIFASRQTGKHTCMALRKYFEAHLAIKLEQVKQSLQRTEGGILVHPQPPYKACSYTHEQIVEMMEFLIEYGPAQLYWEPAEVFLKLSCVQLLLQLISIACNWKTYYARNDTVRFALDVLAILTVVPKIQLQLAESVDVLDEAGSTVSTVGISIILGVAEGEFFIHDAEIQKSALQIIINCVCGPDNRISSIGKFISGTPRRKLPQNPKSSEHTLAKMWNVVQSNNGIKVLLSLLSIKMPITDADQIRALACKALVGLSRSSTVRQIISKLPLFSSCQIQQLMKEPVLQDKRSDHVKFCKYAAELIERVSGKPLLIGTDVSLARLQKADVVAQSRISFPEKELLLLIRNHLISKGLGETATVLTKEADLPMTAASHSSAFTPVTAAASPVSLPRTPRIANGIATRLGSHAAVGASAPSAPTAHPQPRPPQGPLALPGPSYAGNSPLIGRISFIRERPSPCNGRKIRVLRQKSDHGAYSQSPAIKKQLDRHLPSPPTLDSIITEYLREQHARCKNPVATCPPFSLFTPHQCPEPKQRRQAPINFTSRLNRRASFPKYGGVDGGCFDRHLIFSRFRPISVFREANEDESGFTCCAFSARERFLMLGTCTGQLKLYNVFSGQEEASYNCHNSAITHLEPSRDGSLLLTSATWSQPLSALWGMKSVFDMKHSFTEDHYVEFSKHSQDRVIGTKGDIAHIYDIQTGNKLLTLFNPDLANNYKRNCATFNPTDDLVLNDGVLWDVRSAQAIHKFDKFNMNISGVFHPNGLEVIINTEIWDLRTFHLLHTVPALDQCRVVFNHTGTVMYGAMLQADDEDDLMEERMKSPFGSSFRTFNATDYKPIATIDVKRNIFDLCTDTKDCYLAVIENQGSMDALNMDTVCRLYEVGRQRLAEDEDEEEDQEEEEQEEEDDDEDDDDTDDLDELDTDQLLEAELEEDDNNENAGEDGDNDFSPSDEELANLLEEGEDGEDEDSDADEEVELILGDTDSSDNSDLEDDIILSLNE
target = WDR5; conditions = 74.21 °C; result = 45300 a.u.
target = DCAF1; conditions = 80.61 °C; result = 39500 a.u.
target = WDR5; conditions = 34 °C; result = 13800 a.u.
target = DCAF1; conditions = 25.6 °C; result = 7460 a.u.
target = WDR5; conditions = 68.61 °C; result = 23200 a.u.
target = DCAF1; conditions = 89.81 °C; result = 32500 a.u.
target = DCAF1; conditions = 25.4 °C; result = 7470 a.u.
target = DCAF1; conditions = 90.81 °C; result = 31800 a.u.
target = WDR5; conditions = 74.81 °C; result = 47900 a.u.
target = WDR5; conditions = 36 °C; result = 13900 a.u.
target = WDR5; conditions = 26 °C; result = 13200 a.u.

A few entries again (study 1):
target = Tyrosine-protein kinase ABL1, phosphorylated (ABL1, Homo sapiens, UniProt P00519); test = competition with immobilised ligand; result = 94%
target = ABL2 (Homo sapiens, UniProt P42684); test = competition with immobilised ligand; result = 69%
target = MARK3 (Homo sapiens, UniProt P27448); result = 100%
target = PRKCI (Homo sapiens, UniProt P41743); result = 79%
target = BMPR2 (Homo sapiens, UniProt Q13873); result = 100%
target = Cyclin-dependent kinase 4, with cyclin D3 (CDK4, Homo sapiens, UniProt P11802); result = 100%
